# Earlier results that unrelated publications cite.
# Numbers after ± are the reported error.
# Chain of UniProt P28335 (whole entry, looked up): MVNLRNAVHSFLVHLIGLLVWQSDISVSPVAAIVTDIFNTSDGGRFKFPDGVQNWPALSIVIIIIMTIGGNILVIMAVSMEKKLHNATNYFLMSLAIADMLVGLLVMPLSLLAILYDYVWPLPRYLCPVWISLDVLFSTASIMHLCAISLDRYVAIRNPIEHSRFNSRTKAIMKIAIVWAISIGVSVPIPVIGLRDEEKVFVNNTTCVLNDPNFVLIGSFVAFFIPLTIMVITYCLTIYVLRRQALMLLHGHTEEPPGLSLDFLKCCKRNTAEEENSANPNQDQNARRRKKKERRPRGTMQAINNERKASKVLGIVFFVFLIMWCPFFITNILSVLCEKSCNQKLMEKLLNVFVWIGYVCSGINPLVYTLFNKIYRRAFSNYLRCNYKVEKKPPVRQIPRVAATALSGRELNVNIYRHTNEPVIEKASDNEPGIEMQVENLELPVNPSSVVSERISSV
# Chain of UniProt Q9SQR3 (whole entry, looked up): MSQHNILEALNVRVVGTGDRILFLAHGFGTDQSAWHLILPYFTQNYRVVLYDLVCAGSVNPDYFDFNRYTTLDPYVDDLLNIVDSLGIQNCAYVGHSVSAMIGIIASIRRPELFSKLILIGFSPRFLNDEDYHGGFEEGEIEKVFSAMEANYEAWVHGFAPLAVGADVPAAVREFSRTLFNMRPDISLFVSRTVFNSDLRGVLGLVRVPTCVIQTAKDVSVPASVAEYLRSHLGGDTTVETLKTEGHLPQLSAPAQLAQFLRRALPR
# Chain of UniProt P35462 (whole entry, looked up): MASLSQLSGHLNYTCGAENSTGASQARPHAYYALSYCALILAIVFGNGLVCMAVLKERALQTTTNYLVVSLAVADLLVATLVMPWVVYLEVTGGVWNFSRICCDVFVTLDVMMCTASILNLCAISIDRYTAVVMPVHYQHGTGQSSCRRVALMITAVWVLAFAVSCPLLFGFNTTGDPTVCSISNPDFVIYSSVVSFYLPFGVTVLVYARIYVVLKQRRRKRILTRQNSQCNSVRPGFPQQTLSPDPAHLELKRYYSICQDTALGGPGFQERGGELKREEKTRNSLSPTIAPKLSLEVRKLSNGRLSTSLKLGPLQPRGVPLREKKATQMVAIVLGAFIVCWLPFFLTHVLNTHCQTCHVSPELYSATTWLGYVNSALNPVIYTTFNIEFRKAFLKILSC
# Chain of UniProt P51589 (whole entry, looked up): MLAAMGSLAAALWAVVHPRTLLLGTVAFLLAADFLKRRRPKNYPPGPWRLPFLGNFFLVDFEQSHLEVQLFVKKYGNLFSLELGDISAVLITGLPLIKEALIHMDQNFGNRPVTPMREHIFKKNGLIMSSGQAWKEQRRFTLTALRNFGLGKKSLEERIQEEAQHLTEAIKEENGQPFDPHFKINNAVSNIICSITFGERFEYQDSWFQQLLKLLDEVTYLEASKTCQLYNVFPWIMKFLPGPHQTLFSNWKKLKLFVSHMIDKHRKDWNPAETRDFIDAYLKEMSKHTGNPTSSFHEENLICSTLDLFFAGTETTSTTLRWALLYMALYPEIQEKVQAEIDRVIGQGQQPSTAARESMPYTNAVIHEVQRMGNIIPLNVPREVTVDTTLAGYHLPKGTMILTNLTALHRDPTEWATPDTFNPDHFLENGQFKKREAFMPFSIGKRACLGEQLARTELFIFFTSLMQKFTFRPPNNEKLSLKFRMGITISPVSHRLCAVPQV
# Chain of UniProt P16257 (whole entry, looked up): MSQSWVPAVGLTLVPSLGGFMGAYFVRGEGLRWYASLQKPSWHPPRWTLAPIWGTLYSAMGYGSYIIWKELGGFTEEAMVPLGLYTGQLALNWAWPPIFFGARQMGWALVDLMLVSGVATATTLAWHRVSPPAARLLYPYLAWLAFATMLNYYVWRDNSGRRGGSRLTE
# Chain of UniProt P09874 (whole entry, looked up): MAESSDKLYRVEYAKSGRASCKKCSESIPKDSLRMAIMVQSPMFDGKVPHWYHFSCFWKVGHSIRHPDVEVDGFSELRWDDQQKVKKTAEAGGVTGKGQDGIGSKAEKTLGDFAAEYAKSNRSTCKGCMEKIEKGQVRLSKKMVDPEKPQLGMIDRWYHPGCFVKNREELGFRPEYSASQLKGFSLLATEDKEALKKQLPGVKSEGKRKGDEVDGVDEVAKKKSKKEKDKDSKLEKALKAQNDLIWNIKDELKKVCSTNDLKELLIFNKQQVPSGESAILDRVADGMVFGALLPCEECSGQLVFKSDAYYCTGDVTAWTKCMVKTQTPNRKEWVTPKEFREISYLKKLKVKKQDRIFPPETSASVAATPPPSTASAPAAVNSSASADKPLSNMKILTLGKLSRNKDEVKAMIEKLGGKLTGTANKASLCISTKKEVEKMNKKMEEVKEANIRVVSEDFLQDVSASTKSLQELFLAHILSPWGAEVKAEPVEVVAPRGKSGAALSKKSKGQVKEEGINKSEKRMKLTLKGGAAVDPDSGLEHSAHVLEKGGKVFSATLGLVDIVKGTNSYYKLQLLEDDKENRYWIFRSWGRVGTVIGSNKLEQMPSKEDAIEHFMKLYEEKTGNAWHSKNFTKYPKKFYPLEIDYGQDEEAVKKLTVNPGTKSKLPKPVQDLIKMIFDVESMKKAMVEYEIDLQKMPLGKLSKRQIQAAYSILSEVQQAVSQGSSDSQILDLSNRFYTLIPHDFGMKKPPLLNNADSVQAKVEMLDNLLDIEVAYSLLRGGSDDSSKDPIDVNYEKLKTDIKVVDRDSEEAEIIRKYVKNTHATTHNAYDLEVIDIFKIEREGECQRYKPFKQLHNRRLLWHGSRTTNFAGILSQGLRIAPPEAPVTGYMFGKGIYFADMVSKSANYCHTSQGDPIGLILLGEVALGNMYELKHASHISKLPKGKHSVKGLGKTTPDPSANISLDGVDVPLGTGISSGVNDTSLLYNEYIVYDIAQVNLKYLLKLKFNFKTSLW
# Chain of UniProt P29466 (whole entry, looked up): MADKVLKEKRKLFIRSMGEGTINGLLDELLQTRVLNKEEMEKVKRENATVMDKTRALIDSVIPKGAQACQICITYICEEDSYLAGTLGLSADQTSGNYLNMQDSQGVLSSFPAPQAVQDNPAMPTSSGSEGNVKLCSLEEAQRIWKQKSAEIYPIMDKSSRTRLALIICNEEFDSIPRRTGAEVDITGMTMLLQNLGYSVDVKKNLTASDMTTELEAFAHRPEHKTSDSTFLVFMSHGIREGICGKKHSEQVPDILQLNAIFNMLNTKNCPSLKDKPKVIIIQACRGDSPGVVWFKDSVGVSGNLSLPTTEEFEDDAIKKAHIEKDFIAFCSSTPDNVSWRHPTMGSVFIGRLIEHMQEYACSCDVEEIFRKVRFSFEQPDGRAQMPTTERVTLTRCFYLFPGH
# Chain of UniProt P14416 (whole entry, looked up): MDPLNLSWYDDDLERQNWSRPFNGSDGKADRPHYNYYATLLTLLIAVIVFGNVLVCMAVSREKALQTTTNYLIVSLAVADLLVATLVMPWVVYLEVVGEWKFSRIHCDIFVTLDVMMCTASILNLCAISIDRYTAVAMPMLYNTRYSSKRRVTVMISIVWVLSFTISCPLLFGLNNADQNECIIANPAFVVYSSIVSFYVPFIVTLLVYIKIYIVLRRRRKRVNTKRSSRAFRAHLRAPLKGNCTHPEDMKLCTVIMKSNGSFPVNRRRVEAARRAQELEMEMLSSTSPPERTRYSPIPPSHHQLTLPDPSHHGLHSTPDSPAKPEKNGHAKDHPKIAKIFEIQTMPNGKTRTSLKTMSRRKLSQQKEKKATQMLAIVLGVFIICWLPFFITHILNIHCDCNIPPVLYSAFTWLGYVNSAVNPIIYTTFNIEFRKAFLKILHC
Compound,target,test,setting,Ki
CCc1cc(Cl)c(OC)c(C(=O)NC[C@@H]2CCCN2CC)c1O,dopamine D4 receptor,binding,,48 nM
Cc1c(Cl)cccc1Nc1ccccc1C(=O)O,"D14 (Arabidopsis thaliana, UniProt Q9SQR3)",,,2520 nM
CNC(=O)[C@@]12C[C@@H]1[C@@H](n1cnc3c(NCc4cccc(Cl)c4)nc(C#Cc4ccc(F)c(F)c4)nc31)[C@H](O)[C@@H]2O,"Tspo (Rattus norvegicus, UniProt P16257)",radioligand binding,,< 1000 nM
CO[C@H]1/C=C/O[C@@]2(C)Oc3c(C)c(O)c4c(O)c(c(/C=N/N5CCN(C)CC5)c(O)c4c3C2=O)NC(=O)/C(C)=C\C=C\[C@H](C)[C@H](O)[C@@H](C)[C@@H](O)[C@@H](C)[C@H](OC(C)=O)[C@@H]1C,OATP (rat),inhibitor,,1000 to 2000 nM
O=C(O)/C(=C/c1c(C(=O)O)[nH]c2cc(Cl)cc(Cl)c12)c1ccccc1,"Grin1 (Rattus norvegicus, UniProt P35439)",binding,historical reference data,21 nM
COc1cc2c(cc1O)[C@@H]1Cc3ccc(O)c(OC)c3CN1CC2,"DRD3 (Homo sapiens, UniProt P35462)",binding,,30 nM
OC[C@@]12C[C@@H]1[C@@H](n1cnc3c(NC(C4CCC4)C4CCC4)nc(I)nc31)[C@H](O)[C@@H]2O,"HTR2C (Homo sapiens, UniProt P28335)",binding,with: [3H]mesulergine,719 nM
O=c1ccn([C@H]2C[C@H](O)[C@@H](CO)O2)c(=O)[nH]1,cytidine deaminase (human),competitive inhibitor,concentration not given,440000 nM
Nc1ncnc2c1ncn2[C@@H]1O[C@H](COP(=O)(O)CP(=O)(O)OP(=O)(O)O)[C@@H](O)[C@H]1O,P2X receptor,radioligand binding,,18 nM
C[C@]12C=CC(=O)C=C1CC[C@@H]1C2=CC[C@]2(C)[C@@H](C(=O)CN3CCN(c4cc(N5CCCC5)nc(N5CCCC5)n4)CC3)CC[C@@H]12,"Caspase-1 (CASP1, Homo sapiens, UniProt P29466)",inhibitor,,~50 nM
CCCN(CCC1(O)CC(NC(=O)c2ccc3ccccc3c2)C1)C1CC1c1ccc(Cl)cc1 (centres unmarked),"DRD2 (Homo sapiens, UniProt P14416)",binding,,623 nM
CNC(=O)[C@@]12C[C@@H]1[C@@H](n1cnc3c(NC)nc(C#Cc4ccc(F)c(F)c4)nc31)[C@H](O)[C@@H]2O,beta-3 adrenergic receptor,radioligand binding,,2140 nM
OC[C@H]1O[C@@H](n2ccc3c(O)ncnc32)[C@H](O)[C@@H]1O,adenosine kinase (Toxoplasma gondii),binding,,130000 ± 24000 nM
CC1CN([C@H]2C[C@H](O)[C@@H](CO)O2)C(=O)NC1=O (some centres unmarked),cytidine deaminase (human),competitive inhibitor,concentration not given,280000 nM
COc1cc(CNC(=O)CCCC/C=C/C(C)C)ccc1O,"CA2 (Homo sapiens, UniProt P00918)",,,208 nM
O=C1C=CN([C@@H]2O[C@H](CO)[C@@H](O)[C@H]2O)C(=O)C1,cytidine deaminase (human),competitive inhibitor,concentration not given,110000 nM
CN(C)Cc1ccc(-c2nc3cccc4c3n2CCNC4=O)cc1,"PARP1 (Homo sapiens, UniProt P09874)",inhibitor,,< 5 nM
COc1cccc2c1C(=O)c1c(O)c3c(c(O)c1C2=O)C[C@@](O)(C(=O)CO)C[C@@H]3O[C@H]1C[C@H](N)[C@H](O)[C@H](C)O1,"Cytochrome P450 2J2 (CYP2J2, Homo sapiens, UniProt P51589)",competitive binding,with: ebastine,13800 ± 1600 nM
O=c1[nH]c(=O)n([C@@H]2O[C@H](CO)[C@@H](O)[C@H]2O)cc1Br,cytidine deaminase (human),competitive inhibitor,concentration not given,380000 nM
CCC(C)(C)C(=O)C(=O)N1CCC[C@H]1C(=O)OCCCc1cccnc1,FKBP12,"peptidyl-prolyl isomerase activity, inhibitor",,7.5 nM
OC[C@H]1O[C@@H](n2ccc3c(SCc4ccc(Cl)cc4Cl)ncnc32)[C@H](O)[C@@H]1O,adenosine kinase (Toxoplasma gondii),binding,,26000 ± 7600 nM
O=c1ncc(F)cn1[C@@H]1O[C@H](CO)[C@@H](O)[C@H]1O,cytidine deaminase (human),competitive inhibitor,concentration not given,300 nM
O=c1oc2c(cc1O)oc(=O)c1cc(O)c(O)c(O)c12,"LDHA (Homo sapiens, UniProt P00338)","enzyme activity, inhibitor",with: NADH competition,56000 nM

# For quick reference, copied from above:
Compound,target,test,setting,Ki
CC1CN([C@H]2C[C@H](O)[C@@H](CO)O2)C(=O)NC1=O (some centres unmarked),cytidine deaminase (human),competitive inhibitor,concentration not given,280000 nM
COc1cc(CNC(=O)CCCC/C=C/C(C)C)ccc1O,"CA2 (Homo sapiens, UniProt P00918)",,,208 nM
O=C1C=CN([C@@H]2O[C@H](CO)[C@@H](O)[C@H]2O)C(=O)C1,cytidine deaminase (human),competitive inhibitor,concentration not given,110000 nM
